Experimental data pooled from the literature.
Compare with care: the assays were run in different laboratories. Several values in a cell are separate wells, animals, samples, runs or records. ± gives the spread as reported.
GLP1R: Glucagon-like peptide 1 receptor (GLP1R, Homo sapiens, UniProt P43220)
Chain of UniProt Q16774 (whole entry, unmodified, looked up): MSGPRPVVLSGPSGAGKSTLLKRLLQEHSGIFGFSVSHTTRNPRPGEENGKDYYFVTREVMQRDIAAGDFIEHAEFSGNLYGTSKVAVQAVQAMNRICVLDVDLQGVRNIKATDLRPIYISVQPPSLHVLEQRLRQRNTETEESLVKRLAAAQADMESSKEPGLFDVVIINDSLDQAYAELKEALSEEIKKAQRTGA
Chain of UniProt P51575 (whole entry, unmodified, looked up): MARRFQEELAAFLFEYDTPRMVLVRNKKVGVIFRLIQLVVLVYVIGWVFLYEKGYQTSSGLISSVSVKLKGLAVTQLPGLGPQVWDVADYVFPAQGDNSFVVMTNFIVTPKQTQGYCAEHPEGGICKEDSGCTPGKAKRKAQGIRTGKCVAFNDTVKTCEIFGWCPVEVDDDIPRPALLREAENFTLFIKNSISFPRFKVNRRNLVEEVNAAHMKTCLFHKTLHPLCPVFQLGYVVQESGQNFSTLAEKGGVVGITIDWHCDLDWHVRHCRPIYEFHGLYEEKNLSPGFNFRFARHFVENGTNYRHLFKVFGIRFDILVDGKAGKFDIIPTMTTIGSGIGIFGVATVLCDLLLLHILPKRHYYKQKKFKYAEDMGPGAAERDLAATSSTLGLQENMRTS
Chain of UniProt P11388 (whole entry, looked up): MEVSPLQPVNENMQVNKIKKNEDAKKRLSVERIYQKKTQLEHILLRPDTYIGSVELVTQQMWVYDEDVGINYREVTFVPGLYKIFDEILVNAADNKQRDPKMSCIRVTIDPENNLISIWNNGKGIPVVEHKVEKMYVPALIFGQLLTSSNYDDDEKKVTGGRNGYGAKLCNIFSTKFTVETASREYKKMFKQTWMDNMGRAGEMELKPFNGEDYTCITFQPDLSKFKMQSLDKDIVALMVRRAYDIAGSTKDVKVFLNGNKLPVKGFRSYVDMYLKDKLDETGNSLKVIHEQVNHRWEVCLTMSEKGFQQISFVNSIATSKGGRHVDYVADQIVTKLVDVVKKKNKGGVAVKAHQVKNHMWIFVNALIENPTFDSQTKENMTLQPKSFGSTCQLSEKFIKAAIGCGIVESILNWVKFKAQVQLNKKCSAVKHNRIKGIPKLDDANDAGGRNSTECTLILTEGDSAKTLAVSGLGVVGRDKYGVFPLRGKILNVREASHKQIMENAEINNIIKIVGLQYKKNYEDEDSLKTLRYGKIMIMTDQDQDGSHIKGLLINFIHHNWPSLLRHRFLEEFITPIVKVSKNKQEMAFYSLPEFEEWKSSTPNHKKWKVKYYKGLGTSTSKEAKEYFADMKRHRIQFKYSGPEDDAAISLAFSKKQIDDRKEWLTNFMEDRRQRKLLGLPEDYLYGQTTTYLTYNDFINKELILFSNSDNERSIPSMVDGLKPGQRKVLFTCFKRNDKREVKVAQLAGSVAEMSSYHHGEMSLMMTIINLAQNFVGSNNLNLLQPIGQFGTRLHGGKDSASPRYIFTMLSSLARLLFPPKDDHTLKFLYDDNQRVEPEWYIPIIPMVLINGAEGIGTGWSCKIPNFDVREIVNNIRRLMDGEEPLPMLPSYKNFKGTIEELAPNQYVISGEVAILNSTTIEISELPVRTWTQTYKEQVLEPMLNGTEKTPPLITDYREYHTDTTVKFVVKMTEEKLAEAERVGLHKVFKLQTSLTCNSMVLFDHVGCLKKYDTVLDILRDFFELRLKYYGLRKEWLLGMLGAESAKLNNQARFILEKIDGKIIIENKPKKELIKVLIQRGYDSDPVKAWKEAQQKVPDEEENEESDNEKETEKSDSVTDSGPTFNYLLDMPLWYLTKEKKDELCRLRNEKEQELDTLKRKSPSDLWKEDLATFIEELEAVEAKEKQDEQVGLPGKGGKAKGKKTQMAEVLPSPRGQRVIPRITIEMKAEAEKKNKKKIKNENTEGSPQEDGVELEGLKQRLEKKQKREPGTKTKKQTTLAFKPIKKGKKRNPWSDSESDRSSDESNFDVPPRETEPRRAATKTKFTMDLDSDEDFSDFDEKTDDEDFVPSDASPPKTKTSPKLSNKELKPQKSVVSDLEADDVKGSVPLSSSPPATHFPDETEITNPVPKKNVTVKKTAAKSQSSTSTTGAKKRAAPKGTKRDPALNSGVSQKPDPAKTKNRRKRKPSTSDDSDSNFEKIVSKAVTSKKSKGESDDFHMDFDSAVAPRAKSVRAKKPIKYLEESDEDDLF
Chain of UniProt Q08499 (whole entry, unmodified, looked up): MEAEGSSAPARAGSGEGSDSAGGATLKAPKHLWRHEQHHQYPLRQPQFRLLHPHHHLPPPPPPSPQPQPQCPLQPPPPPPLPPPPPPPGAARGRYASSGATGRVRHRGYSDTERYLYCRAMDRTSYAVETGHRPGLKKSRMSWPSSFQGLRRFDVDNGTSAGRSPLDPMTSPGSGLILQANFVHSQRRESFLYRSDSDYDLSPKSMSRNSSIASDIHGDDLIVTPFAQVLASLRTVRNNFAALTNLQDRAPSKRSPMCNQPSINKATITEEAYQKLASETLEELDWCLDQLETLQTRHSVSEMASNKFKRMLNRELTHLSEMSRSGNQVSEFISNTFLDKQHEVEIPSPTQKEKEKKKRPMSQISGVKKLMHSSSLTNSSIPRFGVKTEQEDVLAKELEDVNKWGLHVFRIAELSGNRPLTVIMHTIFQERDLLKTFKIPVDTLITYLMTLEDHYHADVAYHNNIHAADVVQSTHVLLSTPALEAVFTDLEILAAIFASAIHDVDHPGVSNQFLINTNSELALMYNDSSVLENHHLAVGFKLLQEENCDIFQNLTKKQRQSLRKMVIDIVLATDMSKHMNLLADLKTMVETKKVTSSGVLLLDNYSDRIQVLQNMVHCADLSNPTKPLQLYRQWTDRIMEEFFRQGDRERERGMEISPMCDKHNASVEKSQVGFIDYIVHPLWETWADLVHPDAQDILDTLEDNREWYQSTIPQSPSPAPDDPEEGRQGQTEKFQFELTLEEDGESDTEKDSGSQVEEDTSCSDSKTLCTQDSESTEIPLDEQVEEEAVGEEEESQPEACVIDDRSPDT
Chain of UniProt Q99678 (whole entry, looked up): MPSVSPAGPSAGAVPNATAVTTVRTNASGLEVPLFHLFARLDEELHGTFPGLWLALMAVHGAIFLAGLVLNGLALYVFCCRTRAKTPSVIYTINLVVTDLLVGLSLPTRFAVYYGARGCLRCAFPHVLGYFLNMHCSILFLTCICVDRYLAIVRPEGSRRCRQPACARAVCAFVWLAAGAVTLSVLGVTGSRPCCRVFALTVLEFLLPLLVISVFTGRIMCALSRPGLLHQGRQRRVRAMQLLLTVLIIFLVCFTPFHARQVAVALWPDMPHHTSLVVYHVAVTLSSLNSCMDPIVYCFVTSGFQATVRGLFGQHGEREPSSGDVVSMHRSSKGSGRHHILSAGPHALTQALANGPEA
Chain of UniProt P13945 (whole entry, looked up): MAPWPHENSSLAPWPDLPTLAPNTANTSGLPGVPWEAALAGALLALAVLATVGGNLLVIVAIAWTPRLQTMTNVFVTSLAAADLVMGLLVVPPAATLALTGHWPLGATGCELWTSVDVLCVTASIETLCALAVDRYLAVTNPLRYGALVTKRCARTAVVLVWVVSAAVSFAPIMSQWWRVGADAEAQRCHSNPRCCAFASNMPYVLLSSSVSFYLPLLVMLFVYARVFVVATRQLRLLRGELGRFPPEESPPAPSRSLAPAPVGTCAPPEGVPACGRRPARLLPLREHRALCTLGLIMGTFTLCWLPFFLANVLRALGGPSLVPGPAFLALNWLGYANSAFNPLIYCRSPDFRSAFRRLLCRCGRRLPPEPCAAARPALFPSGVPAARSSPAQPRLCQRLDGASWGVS
Chain of UniProt O15164 (whole entry, looked up): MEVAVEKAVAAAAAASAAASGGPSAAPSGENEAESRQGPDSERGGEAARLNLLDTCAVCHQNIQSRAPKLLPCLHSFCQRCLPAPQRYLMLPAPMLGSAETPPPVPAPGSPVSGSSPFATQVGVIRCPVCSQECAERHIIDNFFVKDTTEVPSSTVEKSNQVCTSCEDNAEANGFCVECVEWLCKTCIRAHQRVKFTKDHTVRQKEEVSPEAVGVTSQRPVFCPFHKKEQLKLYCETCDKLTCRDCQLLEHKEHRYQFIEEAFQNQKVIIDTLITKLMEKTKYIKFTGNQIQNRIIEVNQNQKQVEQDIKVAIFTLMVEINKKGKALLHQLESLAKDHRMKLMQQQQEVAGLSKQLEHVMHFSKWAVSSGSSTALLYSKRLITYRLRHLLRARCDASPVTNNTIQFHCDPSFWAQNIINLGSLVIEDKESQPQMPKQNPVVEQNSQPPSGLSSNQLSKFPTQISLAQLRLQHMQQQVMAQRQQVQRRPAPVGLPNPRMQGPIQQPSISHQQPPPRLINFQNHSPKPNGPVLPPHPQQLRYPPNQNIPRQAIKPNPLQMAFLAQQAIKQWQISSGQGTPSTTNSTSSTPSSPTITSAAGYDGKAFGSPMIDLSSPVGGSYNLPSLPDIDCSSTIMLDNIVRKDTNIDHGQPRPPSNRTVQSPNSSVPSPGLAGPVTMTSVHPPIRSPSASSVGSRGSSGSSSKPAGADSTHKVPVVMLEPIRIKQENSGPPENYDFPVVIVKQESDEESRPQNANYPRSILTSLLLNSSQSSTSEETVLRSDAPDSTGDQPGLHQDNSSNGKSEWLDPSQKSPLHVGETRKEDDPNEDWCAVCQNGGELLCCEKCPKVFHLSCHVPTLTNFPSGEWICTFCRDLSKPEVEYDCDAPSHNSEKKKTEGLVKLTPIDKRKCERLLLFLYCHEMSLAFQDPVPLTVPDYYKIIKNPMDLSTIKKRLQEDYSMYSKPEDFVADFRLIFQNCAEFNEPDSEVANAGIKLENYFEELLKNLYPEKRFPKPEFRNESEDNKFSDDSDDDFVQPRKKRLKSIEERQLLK
Chain of UniProt P03146 (whole entry, looked up): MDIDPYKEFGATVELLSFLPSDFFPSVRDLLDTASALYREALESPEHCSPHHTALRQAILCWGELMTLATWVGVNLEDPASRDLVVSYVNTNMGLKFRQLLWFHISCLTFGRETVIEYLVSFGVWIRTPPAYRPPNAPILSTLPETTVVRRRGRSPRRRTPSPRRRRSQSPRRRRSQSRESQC

For `CC[C@H](C)[C@H](NC(=O)[C@H](Cc1ccccc1)NC(=O)[C@H](CCC(=O)O)NC(=O)[C@H](CCCNC(=N)N)NC(=O)[C@H](C)NC(=O)[C@H](C)NC(=O)[C@H](CCC(N)=O)NC(=O)[C@H](CCC(=O)O)NC(=O)[C@H](CCC(=O)O)NC(=O)[C@H](CC(C)C)NC(=O)[C@H](Cc1ccc(O)cc1)NC(=O)[C@H](CO)NC(=O)[C@H](CO)NC(=O)[C@@H](NC(=O)[C@H](CC(=O)O)NC(=O)[C@H](CO)NC(=O)[C@@H](NC(=O)[C@H](Cc1ccccc1)NC(=O)[C@@H](NC(=O)CNC(=O)[C@H](CCC(=O)O)NC(=O)[C@H](C)NC(=O)CCc1cnc[nH]1)[C@@H](C)O)[C@@H](C)O)C(C)C)C(=O)N[C@@H](C)C(=O)N[C@@H](Cc1c[nH]c2ccccc12)C(=O)N[C@@H](CC(C)C)C(=O)N[C@H](C(=O)N[C@@H](CCCCNc1c(NCCCCCN(O)C(=O)CCC(=O)NCCCCCN(O)C(=O)CCC(=O)NCCCCCN(O)C(C)=O)c(=O)c1=O)C(=O)NCC(=O)N[C@@H](CCCNC(=N)N)C(=O)N[C@@H](CCCCNC(=O)COCCOCCNC(=O)COCCOCCNC(=O)CC[C@H](NC(=O)CCCCCCCCCCCCCCCCC(=O)O)C(=O)O)C(=O)NCC(=O)NCC(=O)N[C@@H](CO)C(=O)N[C@@H](CCCCNc1c(NCCCCCN(O)C(=O)CCC(=O)NCCCCCN(O)C(=O)CCC(=O)NCCCCCN(O)C(C)=O)c(=O)c1=O)C(=O)O)C(C)C`, “fold potency loss” read 1.9 (GLP1R; agonist, CRE luciferase reporter; BHK cells; Zr-loaded DFO conjugate, together with: 1% HSA; baseline: parent peptide).
`O=S(=O)(O)C1CCNCC1`: “normalised MST signal” -0.0108 (SLC6A6 (Homo sapiens, UniProt P31641, Y138A); binding, microscale thermophoresis; 30.5 nM, room temperature, together with: 50 nM labelled protein; higher = more binding).
`CCN1CCC[C@H]1CNC(=O)c1c(O)c(Cl)cc(Cl)c1OC` — result for “log2 fold change”: 0.228 (G-protein coupled receptor 20 (GPR20, Homo sapiens, UniProt Q99678); β-arrestin recruitment, TANGO luminescence, measured: GPR20; concentration not given; baseline: basal luminescence).
For `Cc1cccc(N2CC(C(=O)O)CC2=O)c1` (centres unmarked), the fold enrichment was 1.2 (Transcription intermediary factor 1-alpha, PHD-bromodomain (TRIM24, Homo sapiens, UniProt O15164); binding, affinity selection mass spectrometry; baseline: other proteins in batch).
Under “secondary structure change”, `CCCCCCCCCCCC(=O)O` is recorded as “no effect” (Ppara (Mus musculus, UniProt P23204, F272I); far-UV circular dichroism; concentration not given).
With `Nc1c(S(=O)(=O)[O-])cc(Nc2cccc(S(=O)(=O)CCOS(=O)(=O)[O-])c2)c2c1C(=O)c1ccccc1C2=O.[Na+].[Na+]` the kcat was 8.2 s⁻¹ (alternative ancestral dye-decolorizing peroxidase; peroxidase activity, substrate, steady-state kinetics; 25 °C, pH 3 ABTS, 4 others).
For `Cc1ncsc1-c1ccc(CNC(=O)[C@@H]2C[C@@H](O)CN2C(=O)[C@@H](NC(=O)CCCCCCCCCCCC(=O)NCCCCC#Cc2cccc(-c3nn(-c4nc(C(=O)O)cs4)c(CC4CC4)c3Cc3ccc(S(N)(=O)=O)cc3)c2)C(C)(C)C)cc1`, “time to maximal degradation” read 48 h (LDHB (Homo sapiens, UniProt P07195); degrader, western blot; PANC-1; 1 µM).
The activation of `CN1CCN(c2cc(-c3ccncc3)c(-c3ccc4ccccc4c3)nn2)CC1` is reported as -1.7% (SSTR3 (Homo sapiens, UniProt P32745); agonist, FLIPR; 12.5 µM).
`O=S(O)(O)=S` has a ΔTm of 5.04 °C (uncharacterized protein (Pelagibacter ubique, UniProt Q4FMK2); differential scanning fluorimetry; Candidatus Pelagibacter ubique; concentration not given; higher = stronger binding).
`O=C(O)c1ccc(Nc2ncc3c(n2)-c2ccc(Cl)cc2C(c2c(F)cccc2F)=NC3)cc1` gave a remaining activity of 31% (Abl(m); kinase activity; 1 µM).
`CC[C@@H]1[C@H](F)C(=O)N[C@@H]1COc1nccc2cc(C(N)=O)c(OC)cc12` gave an inhibition of -2.6% (CAMK1 (Homo sapiens, UniProt Q14012); ATP probe binding, KiNativ profiling, measured: Lys1 probe site; THP-1 cell lysate; 0.01 mM).
`Cc1ncsc1-c1ccc(CNC(=O)[C@@H]2C[C@@H](O)CN2C(=O)[C@@H](NC(=O)C2(F)CC2)C(C)(C)C)c(OCCOc2ccc(CN3CCN(c4cc(-c5ccccc5O)nnc4N)CC3)cc2)c1`: “cooperativity factor alpha” 11 (SWI/SNF-related matrix-associated actin-dependent regulator of chromatin subfamily A member 4, bromodomain (SMARCA4, Homo sapiens, UniProt P51532); ternary complex binding, TR-FRET competition; together with: VCB complex).
`CCCC(CCC)c1nc2c(Nc3ccc(C#CCCCCCCCCN)cc3)nc3ccccc3c2[nH]1`: off-target affinity “inactive” (ADRB3 (Homo sapiens, UniProt P13945); PDSP screening).
`Nc1ncnc2c1ncn2[C@@H]1O[C@H](COP(=O)(O)CP(=O)(O)OP(=O)(O)O)[C@@H](O)[C@H]1O` gave a specific binding of 992 CCPM and 1010 CCPM and 1830 CCPM (P2X purinoceptor 1 (P2RX1, Homo sapiens, UniProt P51575, M214A); saturation binding; HEK293; 79 nM).
For `O=C(Nc1cc(F)c(F)c(F)c1)c1ccc(F)c(S(=O)(=O)N2CCC(O)CC2)c1`, “capsid to dimer ratio” read 0.3 (Capsid protein, residues 1-149 (C, Hepatitis B virus genotype D subtype ayw, UniProt P03146); capsid assembly, size exclusion chromatography; 10 µM, overnight, together with: 5 µM Cp149, 150 mM NaCl).
`Cc1cc2c(cc1N1C(=O)c3cccc4c(Cl)ccc(c34)C1=O)n(C)c(=O)n2C` has a delta Tm of 1.1 °C (BRPF3 (Homo sapiens, UniProt Q9ULD4); 10 µM).
`CC[C@H](C)[C@H](NC(=O)[C@H](Cc1ccccc1)NC(=O)[C@H](CCC(=O)O)NC(=O)[C@H](CCCNC(=N)N)NC(=O)[C@H](C)NC(=O)[C@H](C)NC(=O)[C@H](CCC(N)=O)NC(=O)[C@H](CCC(=O)O)NC(=O)[C@H](CCC(=O)O)NC(=O)[C@H](CC(C)C)NC(=O)[C@H](Cc1ccc(O)cc1)NC(=O)[C@H](CO)NC(=O)[C@H](CO)NC(=O)[C@@H](NC(=O)[C@H](CC(=O)O)NC(=O)[C@H](CO)NC(=O)[C@@H](NC(=O)[C@H](Cc1ccccc1)NC(=O)[C@@H](NC(=O)CNC(=O)[C@H](CCC(=O)O)NC(=O)[C@H](C)NC(=O)CCc1cnc[nH]1)[C@@H](C)O)[C@@H](C)O)C(C)C)C(=O)N[C@@H](C)C(=O)N[C@@H](Cc1c[nH]c2ccccc12)C(=O)N[C@@H](CC(C)C)C(=O)N[C@H](C(=O)N[C@@H](CCCNC(=N)N)C(=O)NCC(=O)N[C@@H](CCCNC(=N)N)C(=O)N[C@@H](CCCCNC(=O)COCCOCCNC(=O)COCCOCCNC(=O)CC[C@H](NC(=O)CCCCCCCCCCCCCCCCC(=O)O)C(=O)O)C(=O)NCC(=O)NCC(=O)N[C@@H](CO)C(=O)N[C@@H](CCCCNc1c(NCCCCCN(O)C(=O)CCC(=O)NCCCCCN(O)C(=O)CCC(=O)NCCCCCN(O)C(C)=O)c(=O)c1=O)C(=O)NCC(=O)NCC(=O)N[C@@H](CO)C(=O)N[C@@H](CCCCNc1c(NCCCCCN(O)C(=O)CCC(=O)NCCCCCN(O)C(=O)CCC(=O)NCCCCCN(O)C(C)=O)c(=O)c1=O)C(=O)NCC(=O)NCC(=O)N[C@@H](CO)C(=O)N[C@@H](CCCCNc1c(NCCCCCN(O)C(=O)CCC(=O)NCCCCCN(O)C(=O)CCC(=O)NCCCCCN(O)C(C)=O)c(=O)c1=O)C(=O)O)C(C)C` — result for “fold potency loss”: 4.9 (GLP1R; agonist, CRE luciferase reporter; BHK cells; metal-free DFO conjugate, together with: 1% HSA; baseline: parent peptide).
`COc1cccc(-n2nc3c4cc(Cl)ccc4[nH]cc-3c2=O)c1` gave an efficacy of 102 ± 3.8% (Gamma-aminobutyric acid receptor subunit alpha-6/beta-3, with delta subunit (Gabra6/Gabrb3, Rattus norvegicus, UniProt P30191+P63079); ion current, modulator, two-electrode voltage clamp; 100 nM, α6β3δ receptor, together with: GABA EC3-10).
For `NC1CCN(S(=O)(=O)c2cc(C(=O)Nc3cc(F)c(F)c(F)c3)ccc2F)CC1`, the kon was 66.9 M⁻¹ s⁻¹ (Capsid protein (C, Hepatitis B virus genotype D subtype ayw, UniProt P03146); surface plasmon resonance; 25 °C).
The linear DNA of `O=c1nc(SCc2cc(F)cc(C(F)(F)F)c2)nc(SCc2ccc3sccc3c2)[nH]1` is reported as 13.8% and 10.5% (TOP2A (Homo sapiens, UniProt P11388); DNA cleavage, competition with etoposide; 7.8 µM, together with: etoposide 50 µM).
`COc1cc(C[C@H]2C(=O)OC[C@@H]2Cc2ccc(OC)c(OC)c2)ccc1O` has a ΔH of -9.17 ± 0.39 kcal/mol (PDE4D (Homo sapiens, UniProt Q08499); isothermal titration calorimetry).
The reaction rate of `Nc1nc2c(ncn2[C@@H]2O[C@H](COP(=O)(O)O)[C@@H](O)[C@H]2O)c(=O)[nH]1` is reported as 1.65 s⁻¹ and 2.35 s⁻¹ and 2.22 s⁻¹ (GUK1 (Homo sapiens, UniProt Q16774, S37P); enzyme activity, NADH-coupled; 1000 µM).
`C=CC(=O)N1CCC(COCC(=O)N2CCN(c3nc(-c4cnc(N)nc4C(F)F)nc(N4CCOC[C@@H]4C)n3)CC2)CC1` gave a remaining binding of 63% (MAP3K19 (Homo sapiens, UniProt Q56UN5); KINOMEscan; 1 µM).
For `CC1=C(/C=C/C(C)=C/C=C/C(C)=C/C=O)C(C)(C)CCC1`, the relative kon was 1.28 ± 0.13 (Rhodopsin (RHO, Bos taurus, UniProt P02699, I189A); retinal entry, Trp FRET; lipid bicelles; 28 °C, I189A mutant; baseline: wild-type rhodopsin).
For `CC[C@H](C)[C@H](NC(=O)[C@H](Cc1ccccc1)NC(=O)[C@H](CCC(=O)O)NC(=O)[C@H](CCCNC(=N)N)NC(=O)[C@H](C)NC(=O)[C@H](C)NC(=O)[C@H](CCC(N)=O)NC(=O)[C@H](CCCCNc1c(NCCCCCN(O)C(=O)CCC(=O)NCCCCCN(O)C(=O)CCC(=O)NCCCCCN(O)C(C)=O)c(=O)c1=O)NC(=O)[C@H](CCC(=O)O)NC(=O)[C@H](CC(C)C)NC(=O)[C@H](Cc1ccc(O)cc1)NC(=O)[C@H](CO)NC(=O)[C@H](CO)NC(=O)[C@H](CCCCNc1c(NCCCCCN(O)C(=O)CCC(=O)NCCCCCN(O)C(=O)CCC(=O)NCCCCCN(O)C(C)=O)c(=O)c1=O)NC(=O)[C@H](CC(=O)O)NC(=O)[C@H](CO)NC(=O)[C@@H](NC(=O)[C@H](Cc1ccccc1)NC(=O)[C@@H](NC(=O)CNC(=O)[C@H](CCC(=O)O)NC(=O)[C@H](C)NC(=O)CCc1cnc[nH]1)[C@@H](C)O)[C@@H](C)O)C(=O)N[C@@H](C)C(=O)N[C@@H](Cc1c[nH]c2ccccc12)C(=O)N[C@@H](CC(C)C)C(=O)N[C@H](C(=O)N[C@@H](CCCNC(=N)N)C(=O)NCC(=O)N[C@@H](CCCNC(=N)N)C(=O)N[C@@H](CCCCNC(=O)COCCOCCNC(=O)COCCOCCNC(=O)CC[C@H](NC(=O)CCCCCCCCCCCCCCCCC(=O)O)C(=O)O)C(=O)O)C(C)C`, “fold potency loss” read 21.4 (GLP1R; agonist, CRE luciferase reporter; BHK cells; Zr-loaded DFO conjugate, together with: 1% HSA; baseline: parent peptide).
`C=CCNC1=C2C[C@@H](C)C[C@H](OC)[C@H](O)[C@@H](C)/C=C(\C)[C@H](OC(N)=O)[C@@H](OC)/C=C\C=C(/C)C(=O)NC(=CC1=O)C2=O` — result for “luminescence signal reduction”: -5.02% (NanoBiT HiBiT/LgBiT luciferase; inhibitor, HiBiT luminescence counterscreen; conditioned medium only; 5 µM, 24 h; baseline: vehicle).

Excerpt of the above:
`CC[C@@H]1[C@H](F)C(=O)N[C@@H]1COc1nccc2cc(C(N)=O)c(OC)cc12` gave an inhibition of -2.6% (CAMK1 (Homo sapiens, UniProt Q14012); ATP probe binding, KiNativ profiling, measured: Lys1 probe site; THP-1 cell lysate; 0.01 mM).
`Cc1ncsc1-c1ccc(CNC(=O)[C@@H]2C[C@@H](O)CN2C(=O)[C@@H](NC(=O)C2(F)CC2)C(C)(C)C)c(OCCOc2ccc(CN3CCN(c4cc(-c5ccccc5O)nnc4N)CC3)cc2)c1`: “cooperativity factor alpha” 11 (SWI/SNF-related matrix-associated actin-dependent regulator of chromatin subfamily A member 4, bromodomain (SMARCA4, Homo sapiens, UniProt P51532); ternary complex binding, TR-FRET competition; together with: VCB complex).
